Results gathered from unrelated publications.
Protocols differ between the studies behind these lines.

Under “patients with macular oedema”, `O=C1Nc2cc3[nH]nc(-c4ccncc4)c3cc2CN1Cc1ccccc1` is recorded as 11% (CTCAE v4.03; advanced solid tumour patients; intravenous, 6.4 mg/kg).
`COc1c(OCCCN2CCOCC2)ccc2c1N=C(NC(=O)c1cnc(N)nc1)N1CCN=C21` — result for “patients with adverse event”: 50% (measured: Vomiting; patients with advanced malignancies; intravenous, dose not given, any grade, all cohorts, together with: gemcitabine).
Under “patients with hypertriglyceridemia”, `CC(=O)c1c(C)c2cnc(Nc3ccc(C4CCN(CCS(C)(=O)=O)CC4)cn3)nc2n(C2CCCC2)c1=O` is recorded as 2.5% (HR+/HER2- advanced breast cancer patients; oral, dose not given, grade 3/4,, sample A patients).
`N[C@@H]1c2ccccc2OC12CCN(c1cnc3c(N4CCCc5ncccc54)n[nH]c3n1)CC2` — result for “patients with grade ≥3 TEAE”: 42.9% (advanced solid tumour patients; oral, 100 mg once daily).
`Nc1nc2cc(-c3ccc4ncc(C(=O)N5CCOCC5)n4c3)ccc2o1` — result for “patients with adverse event”: 1% (measured: Hypokalemia; advanced solid tumour patients; dose not given).
Under “patients with adverse event”, `CN1CC[C@@H](c2c(O)cc(O)c3c(=O)cc(-c4ccc(C(F)(F)F)cc4Cl)oc23)[C@@H]1CO` is recorded as 0% (measured: Lymphopenia; relapsed AML; oral, 100 mg, grade 3-4, intermittent dosing).
`C=CCNc1c(O)cc2c(O)c1C[C@@H](C)C[C@H](OC)[C@H](O)[C@@H](C)/C=C(\C)[C@H](OC(N)=O)[C@@H](OC)/C=C\C=C(/C)C(=O)N2`: “patients with AST increase” 16% (unresectable or metastatic sarcoma; intravenous, 400 mg/m^2, grade 3-4 lab change).
For `CCN(CCO)CCCC(C)Nc1ccnc2cc(Cl)ccc12` (centres unmarked), “patients with adverse event” read 14% (measured: Hyperuricemia grade 3; newly diagnosed glioblastoma patients; oral, 400 mg/dose, with radiotherapy and temozolomide).

Repeated from above:
Under “patients with macular oedema”, `O=C1Nc2cc3[nH]nc(-c4ccncc4)c3cc2CN1Cc1ccccc1` is recorded as 11% (CTCAE v4.03; advanced solid tumour patients; intravenous, 6.4 mg/kg).
